Assay results collected from several papers.
Numbers after ± are the reported error.
UniProt P08684, sequence (whole entry, looked up): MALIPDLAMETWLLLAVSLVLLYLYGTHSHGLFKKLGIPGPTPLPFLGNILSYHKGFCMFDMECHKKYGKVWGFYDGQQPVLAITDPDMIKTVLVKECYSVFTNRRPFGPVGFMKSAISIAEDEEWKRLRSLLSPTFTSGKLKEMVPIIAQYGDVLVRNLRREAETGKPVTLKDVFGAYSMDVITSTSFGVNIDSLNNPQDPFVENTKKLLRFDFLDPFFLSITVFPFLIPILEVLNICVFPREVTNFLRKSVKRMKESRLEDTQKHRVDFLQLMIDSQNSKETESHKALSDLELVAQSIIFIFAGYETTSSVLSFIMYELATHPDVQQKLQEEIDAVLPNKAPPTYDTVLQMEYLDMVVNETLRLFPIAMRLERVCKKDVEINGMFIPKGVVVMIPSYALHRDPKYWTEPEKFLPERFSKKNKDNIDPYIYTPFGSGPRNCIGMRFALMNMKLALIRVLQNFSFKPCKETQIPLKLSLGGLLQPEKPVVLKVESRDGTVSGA
UniProt Q6P179, sequence (whole entry, looked up): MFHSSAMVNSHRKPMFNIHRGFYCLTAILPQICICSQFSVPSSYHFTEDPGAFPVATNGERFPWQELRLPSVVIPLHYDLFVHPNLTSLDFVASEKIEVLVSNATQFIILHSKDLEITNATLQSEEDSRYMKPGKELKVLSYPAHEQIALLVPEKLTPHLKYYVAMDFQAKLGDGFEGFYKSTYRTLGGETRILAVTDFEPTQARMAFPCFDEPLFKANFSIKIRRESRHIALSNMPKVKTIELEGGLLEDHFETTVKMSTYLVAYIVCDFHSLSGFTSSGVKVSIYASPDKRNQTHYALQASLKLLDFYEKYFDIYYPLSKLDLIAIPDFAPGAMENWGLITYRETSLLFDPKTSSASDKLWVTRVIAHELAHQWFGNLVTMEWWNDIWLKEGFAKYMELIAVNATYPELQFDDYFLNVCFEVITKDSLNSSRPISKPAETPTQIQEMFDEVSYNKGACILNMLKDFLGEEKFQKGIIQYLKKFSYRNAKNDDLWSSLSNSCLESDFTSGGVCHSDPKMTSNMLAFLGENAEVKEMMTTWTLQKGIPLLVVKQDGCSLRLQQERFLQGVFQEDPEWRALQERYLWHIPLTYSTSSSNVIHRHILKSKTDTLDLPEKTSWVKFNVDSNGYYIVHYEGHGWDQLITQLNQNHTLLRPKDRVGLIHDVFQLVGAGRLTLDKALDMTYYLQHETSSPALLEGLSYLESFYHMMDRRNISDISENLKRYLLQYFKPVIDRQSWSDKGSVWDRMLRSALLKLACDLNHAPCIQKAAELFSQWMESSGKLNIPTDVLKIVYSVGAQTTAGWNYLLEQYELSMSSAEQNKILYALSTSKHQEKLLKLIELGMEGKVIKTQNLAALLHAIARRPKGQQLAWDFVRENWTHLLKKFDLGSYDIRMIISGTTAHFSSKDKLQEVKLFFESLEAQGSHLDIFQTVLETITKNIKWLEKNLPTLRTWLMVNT
UniProt Q9HAW8, sequence (whole entry, looked up): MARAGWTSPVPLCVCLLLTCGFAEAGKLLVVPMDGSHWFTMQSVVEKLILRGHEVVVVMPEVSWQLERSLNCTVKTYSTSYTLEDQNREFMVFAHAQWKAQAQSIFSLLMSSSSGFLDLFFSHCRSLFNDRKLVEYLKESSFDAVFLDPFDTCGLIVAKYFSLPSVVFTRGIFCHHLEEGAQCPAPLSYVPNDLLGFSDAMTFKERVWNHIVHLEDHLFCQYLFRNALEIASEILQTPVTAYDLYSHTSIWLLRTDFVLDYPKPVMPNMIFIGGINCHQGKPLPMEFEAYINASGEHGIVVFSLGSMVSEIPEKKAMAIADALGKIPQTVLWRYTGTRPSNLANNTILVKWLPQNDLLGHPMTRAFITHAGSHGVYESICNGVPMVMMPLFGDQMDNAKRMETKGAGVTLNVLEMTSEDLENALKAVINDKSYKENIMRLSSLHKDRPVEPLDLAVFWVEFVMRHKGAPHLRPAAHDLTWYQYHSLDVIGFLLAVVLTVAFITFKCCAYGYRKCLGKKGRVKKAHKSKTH

SMILES | target | assay | test system | setting | scale | measurement | value
COc1ccc(/C=C/c2ccc(-c3ccc(C)cn3)nc2)cc1 | zinc(II) | – | neutral aqueous solution | zinc saturation | reference: zinc-free ligand | emission wavenumber shift | 2250 cm⁻¹
O=c1c(/C=N/NC(=S)N/N=C/c2cc(Cl)ccc2O)coc2ccccc12 | Mn2+ complex | potentiometric titration | – | 25 °C | – | log stability constant | 16.3
COc1cccc2c1C(=O)c1c(O)c3c(c(O)c1C2=O)CC(O)(C(=O)CO)CC3OC1CC(NC(=O)C[C@H](N)C(=O)O)C(O)C(C)O1 (stereo partly drawn) | P-glycoprotein (MDR1) | – | MDCK-MDR1 | 50 µg/mL, 60 min | – | Papp (B-A) | 0.87 ± 0.073 ×10⁻⁶ cm/s
O=C(C[C@H](Cc1ccc(O)cc1)n1cc(CNS(=O)(=O)c2ccc(-c3ccccc3)s2)nn1)NO | ERAP2 (Homo sapiens, UniProt Q6P179) | inhibitor | – | – | – | lipophilic ligand efficiency | 2.4
NC(=S)N/N=C/c1ccccc1O | Cu2+ complex | potentiometric titration | – | 25 °C | – | log stability constant | 18
[64Cu+2].c1ccc(CNCc2ccc(CN3CCCN4CCNCCCN(CC4)CC3)cc2)nc1 | CXCR4 | – | NOD/SCID mouse, U87 and U87-stb-CXCR4 xenografts, liver | iv, 240 min, ex vivo | – | tissue uptake | 101 ± 8.94 %ID/g
O=c1c(/C=N/NC(=S)N/N=C/c2ccccc2O)coc2ccccc12 | Mn2+ complex | potentiometric titration | – | 25 °C | – | log stability constant | 16.2
O=C(O)[C@@H]1C[C@@H](O)CN1C(=O)[C@@H]1CCCN1 | iron(III) ion | complex formation, from log β | aqueous 0.15 M NaCl | 25 °C, MAH−2 complex species | – | −ΔG | 0.00478 kcal/mol
O=C(O)[C@H]1O[C@@H](O[C@H]2C=Cc3c(cc4ccc5cccc6c7ccccc7c3c4c56)[C@@H]2O)[C@H](O)[C@@H](O)[C@@H]1O | UGT1A10 (Homo sapiens, UniProt Q9HAW8) | substrate | – | – | – | Km | 66 ± 19 µM
O=C([O-])CN1CCN(CC(=O)[O-])CCN(Cc2cccc(C(=O)[O-])n2)CC1.[Cu+2] | copper(II/I) couple | cyclic voltammetry | – | pH 5 | – | peak separation | 103 mV
[64Cu+2].c1cnc(CNCc2ccc(CN3CCCN4CCNCCCN(CC4)CC3)cc2)nc1 | CXCR4 (human) | – | NOD/SCID mice, U87 xenografts, small intestine | 450 min post-injection | – | tissue uptake | 3.98 ± 0.34 %ID/g
NC(=S)N/N=C/c1cc(Cl)ccc1O | Mn2+ complex | potentiometric titration | – | 25 °C | – | log stability constant | 16.6
O=C(NO)c1ccc(CN2CCCCc3ccccc32)c([18F])c1 | Histone deacetylase 6 (Macaca mulatta, UniProt H9ER82) | – | male rhesus macaque, whole brain | intravenous, 5.07 mCi, baseline | – | peak SUV | 1.3
CNC(=S)N/N=C/c1ccccn1 | Mn2+ complex | potentiometric titration | – | 25 °C | – | log stability constant | 15.9
O=C([O-])c1cccc(CN2CCNCCNCC2)n1.[Cu+2] | copper(II/I) couple | cyclic voltammetry | – | pH 5 | – | peak separation | 64 mV
O=c1c(/C=N/NC(=S)N/N=C/c2ccccn2)coc2ccccc12 | Cu2+ complex | potentiometric titration | – | 25 °C | – | log stability constant | 19.5
N#CCc1cccc(Cl)c1-c1ccc2[nH][11c](=O)[nH]c2c1 | P-glycoprotein and Bcrp | ex vivo brain uptake | mouse | injection, 5 min, with: tariquidar | reference: without tariquidar | brain-to-blood ratio increase | 177%
C=CC(=O)Nc1cc(Nc2nccc(-c3cn(C)c4ccccc34)n2)c(OCC(F)(F)F)nc1N(C)CCN(C)C | Cytochrome P450 3A4 (CYP3A4, Homo sapiens, UniProt P08684) | enzyme activity, inhibitor | human, liver microsomes | 1 µM, testosterone probe | – | activity vs control | 101%

Excerpt of the above:
SMILES | target | assay | test system | setting | scale | measurement | value
O=C([O-])CN1CCN(CC(=O)[O-])CCN(Cc2cccc(C(=O)[O-])n2)CC1.[Cu+2] | copper(II/I) couple | cyclic voltammetry | – | pH 5 | – | peak separation | 103 mV
[64Cu+2].c1ccc(CNCc2ccc(CN3CCCN4CCNCCCN(CC4)CC3)cc2)nc1 | CXCR4 | – | NOD/SCID mouse, U87 and U87-stb-CXCR4 xenografts, liver | iv, 240 min, ex vivo | – | tissue uptake | 101 ± 8.94 %ID/g
[64Cu+2].c1cnc(CNCc2ccc(CN3CCCN4CCNCCCN(CC4)CC3)cc2)nc1 | CXCR4 (human) | – | NOD/SCID mice, U87 xenografts, small intestine | 450 min post-injection | – | tissue uptake | 3.98 ± 0.34 %ID/g
